Assay results gathered from unrelated publications.
Values joined by “and” are separate records of one study, mostly repeats; a detail may differ. Numbers after ± are the reported error.
BPTF bromodomain: Nucleosome-remodeling factor subunit BPTF, bromodomain (BPTF, Homo sapiens, UniProt Q12830)
TIAM1 PDZ domain: Rho guanine nucleotide exchange factor TIAM1, PDZ domain (TIAM1, Homo sapiens, UniProt Q13009)
LGALS1: Galectin-1 (LGALS1, Homo sapiens, UniProt P09382)

CC(=O)NCCCC[C@H](NC(=O)CNC(=O)[C@H](C)NC(=O)[C@H](CCCCN)NC(=O)CNC(=O)CNC(=O)[C@H](C)NC(=O)[C@@H](N)Cc1ccc(O)cc1)C(=O)N[C@@H](CC(=O)O)C(=O)N[C@@H](CO)C(=O)NCC(=O)N[C@@H](CCCCN)C(=O)N[C@@H](C)C(=O)N[C@@H](CCCCN)C(=O)N[C@@H](C)C(=O)N[C@@H](CCCCNC(C)=O)C(=O)N[C@@H](C)C(=O)N[C@H](C(=O)N[C@@H](CO)C(=O)N[C@@H](CCCNC(=N)N)C(N)=O)C(C)C
Kd (BPTF bromodomain; bromodomain binding, PrOF NMR titration; pH 7.4, 5-fluorotryptophan-labelled bromodomain, 40-50 µM): 370 µM

CCCN(CC(=O)N(CCC)CC(=O)N(CCC)CC(=O)N(CCC)CC(=O)N(CC(=O)N(CCC)CC(=O)N(CCC)CC(=O)N(CCC)CC(=O)N(CCC)CC(=O)N(CC(N)=O)Cc1cn(CCCNC(=O)CCCOc2cccc(-c3nc4ccc(-c5nc6ccc(N7CCN(C)CC7)cc6[nH]5)cc4[nH]3)c2)nn1)Cc1cn(CCCNC(=O)CCCOc2cccc(-c3nc4ccc(-c5nc6ccc(N7CCN(C)CC7)cc6[nH]5)cc4[nH]3)c2)nn1)C(=O)CNCc1cn(CCCNC(=O)CCCOc2cccc(-c3nc4ccc(-c5nc6ccc(N7CCN(C)CC7)cc6[nH]5)cc4[nH]3)c2)nn1
Kd (r(CUG)109 RNA hairpin; binding, fluorescence): 0.065 ± 0.008 µM

C[C@H](NC(=O)[C@H](Cc1ccc(O)cc1)NC(=O)[C@H](Cc1ccccc1)NC(=O)[C@H](CCC(=O)O)NC(=O)[C@H](CCCCN)NC(=O)[C@@H](NC(=O)[C@@H]1CCCN1C(=O)[C@H](C)NS(=O)(=O)c1cccc2c(N(C)C)cccc12)[C@@H](C)O)C(=O)O
Kd (TIAM1 PDZ domain; fluorescence anisotropy; 25 °C, PDZ domain): 453 ± 22 µM

O=C(O)C(=O)N1CCc2cccc(F)c2C1
Kd (Dual specificity protein phosphatase 3 (DUSP3, Homo sapiens, UniProt P51452); binding, isothermal titration calorimetry): 2000 ± 1000 µM

Cc1cc(N2CC[C@](C#N)(C3(C)CC3)C2=O)cc(C(=O)NCc2cc(F)cc(-c3cnn(C)c3)c2)n1
Kd (Proline--tRNA ligase (Plasmodium falciparum, UniProt Q8I5R7); binding, microscale thermophoresis): 0.374 µM and 0.413 µM

Oc1c(I)cc(I)cc1CN1CCC(N2CCC(O)CC2)CC1
Kd (Cellular tumor antigen p53, DNA-binding domain (TP53, Homo sapiens, UniProt P04637, M133L/N239Y/N268D/V203A/Y220C); ITC; pH 7.2, 20 °C, 5% DMSO): 78 µM

CC[C@H](C)[C@H](NC(=O)[C@H](C)NC(=O)[C@H](CCCCN)NC(=O)[C@@H](NC(=O)[C@H](CCC(=O)O)NC(=O)[C@H](CCC(=O)O)NC(=O)[C@H](CCC(=O)O)NC(=O)[C@H](CO)NC(=O)[C@H](CC(C)C)NC(=O)[C@H](CC(=O)O)NC(=O)[C@H](CC(C)C)NC(=O)CNC(=O)[C@H](CCCNC(=N)N)NC(=O)[C@H](CC(C)C)NC(=O)[C@H](CO)NC(=O)CNC(=O)CNC(=O)CNC(=O)CCCC[C@@H]1SC[C@@H]2NC(=O)N[C@@H]21)C(C)C)C(=O)N[C@@H](CC(C)C)C(=O)N[C@@H](CC(=O)O)C(=O)N[C@@H](CCC(=O)O)C(=O)N[C@H](C(=O)N[C@H](C(=O)N[C@@H](CCCCN)C(=O)N[C@@H](CC(=O)O)C(=O)O)C(C)C)[C@@H](C)CC
Kd (Fab B11 antibody (human); binding, biolayer interferometry; together with: biotinylated peptide on tips): 0.053 ± 0.001 µM

C[C@H](NC(=O)[C@H](C)NC(=O)[C@H](Cc1ccc(O)cc1)NS(=O)(=O)c1cccc2c(N(C)C)cccc12)C(=O)N[C@@H](CCCNC(=N)N)C(=O)N[C@@H](CCCCN)C(=O)N[C@@H](Cc1ccccc1)C(=O)N[C@@H](C)C(=O)N[C@@H](CCCCN)C(=O)O
Kd (TIAM1 PDZ domain; fluorescence anisotropy; 25 °C, together with: dansylated peptide 1 µM): > 250 µM

O=P(O)(O)O[C@@H]1[C@@H](O)[C@H](O)[C@H](O)[C@H](O)[C@H]1OP(=O)(O)O
Kd (Inositol 1,4,5-trisphosphate-gated calcium channel ITPR1, IP3-binding core (Itpr1, Rattus norvegicus, UniProt P29994); binding, radioligand competition binding; IP3-binding core, CLM medium, together with: [3H]IP3): 0.427 µM

CC[C@H](C)[C@H](NC(=O)[C@H](CCCCN)NC(=O)[C@H](CCCCN)NC(=O)[C@@H](NC(=O)[C@H](CCC(=O)O)NC(=O)[C@H](CCC(=O)O)NC(=O)[C@H](CCC(=O)O)NC(=O)[C@H](CO)NC(=O)[C@H](CC(C)C)NC(=O)[C@H](C)NC(=O)[C@H](CC(C)C)NC(=O)CNC(=O)[C@H](CCCNC(=N)N)NC(=O)[C@H](CC(C)C)NC(=O)[C@H](CO)NC(=O)CNC(=O)CNC(=O)CNC(=O)CCCC[C@@H]1SC[C@@H]2NC(=O)N[C@@H]21)C(C)C)C(=O)N[C@@H](CC(C)C)C(=O)N[C@@H](CC(=O)O)C(=O)N[C@@H](CCC(=O)O)C(=O)N[C@H](C(=O)N[C@H](C(=O)N[C@@H](CCCCN)C(=O)N[C@@H](CC(=O)O)C(=O)O)C(C)C)[C@@H](C)CC
Kd (Fab B11 antibody (human); binding, biolayer interferometry; together with: biotinylated peptide on tips): 0.094 ± 0.002 µM

CN(C)CCNC(=O)c1cccc2c(NCCCCc3c(N)nc(N)nc3N)c3ccccc3nc12
Kd (RNA with single C–U pair; binding, ITC; 25 °C, 2): 231 ± 55 µM

O=C(O)Cc1cccc(O)c1
Kd (p-hydroxyphenylacetate 3-hydroxylase, reductase component (C1-hpah, Acinetobacter baumannii, UniProt Q6Q271); ITC; pH 7, together with: 1 mM FMN): 36.4 ± 6.9 µM

CC(=O)NCCCC[C@H](NC(=O)[C@H](CCCCN)NC(=O)[C@H](Cc1c[nH]cn1)NC(=O)[C@H](CCCNC(=N)N)NC(C)=O)C(=O)Nc1ccc2c(C)cc(=O)oc2c1
Kd (NAD-dependent protein deacetylase sirtuin-1 (SIRT1, Homo sapiens, UniProt Q96EB6, C253S/C268S/C501S/C502S/del513-640/N226A/Q222A); peptide binding, isothermal titration calorimetry; 10% glycerol; pH 7.5, 25 °C, Q222A/N226A mutant, together with: resveratrol 0.5 mM): 18.2 µM

CC(=O)NCCCC[C@H](NC(=O)CNC(=O)CNC(=O)[C@H](C)NC(=O)[C@@H](N)Cc1ccc(O)cc1)C(=O)N[C@@H](C)C(=O)NCC(=O)N[C@@H](CCCCN)C(=O)N[C@@H](CC(=O)O)C(=O)N[C@@H](CO)C(=O)NCC(=O)N[C@@H](CCCCN)C(=O)N[C@@H](C)C(=O)N[C@@H](CCCCNC(C)=O)C(=O)N[C@H](C(=O)N[C@@H](CCCCN)C(=O)N[C@@H](C)C(=O)N[C@H](C(=O)N[C@@H](CO)C(=O)N[C@@H](CCCNC(=N)N)C(N)=O)C(C)C)[C@@H](C)O
Kd (BPTF bromodomain; bromodomain binding, PrOF NMR titration; pH 7.4, 5-fluorotryptophan-labelled bromodomain, 40-50 µM): 780 µM

CC(C)C[C@H](NC(=O)CNC(=O)[C@H](CC(C)C)NC(=O)[C@@H](N)CCC(=O)O)C(=O)N[C@H](C(=O)N1CCC[C@H]1C(=O)N[C@@H](COP(=O)(O)O)C(=O)N1CCC[C@H]1C(=O)N[C@@H](C)C(=O)N[C@@H](CO)C(=O)N[C@@H](CC(C)C)C(=O)N[C@@H](Cc1c[nH]c2ccccc12)C(=O)N1CCC[C@H]1C(=O)N1CCC[C@H]1C(=O)N1CCC[C@H]1C(=O)N1CCC[C@H]1C(=O)N[C@@H](CO)C(=O)N1CCC[C@H]1C(=O)N[C@@H](C)C(=O)N1CCC[C@H]1C(=O)N[C@@H](CO)C(=O)N[C@@H](CO)C(=O)N[C@H](C(=O)N[C@@H](CCCCN)C(=O)O)[C@@H](C)O)C(C)C
Kd (Peptidyl-prolyl cis-trans isomerase NIMA-interacting 1, WW domain (PIN1, Homo sapiens, UniProt Q13526); binding, NMR titration; isolated WW domain; pH 6.8, 25 °C): 385 ± 96 µM

COc1ccc(Cc2cc3c4c(c2)O[C@H](CO)[C@H](O)[C@@H]4OC3)cc1
Kd (LGALS1; ligand displacement, FP): 1500 µM

Cc1cc2nc(NC(=O)C3CC3)sc2c(C)c1Oc1ccc(F)c(NC(=O)Cc2cccc(C(F)(F)F)c2)c1
Kd (Receptor-interacting serine/threonine-protein kinase 3 (RIPK3, Homo sapiens, UniProt Q9Y572); binding, competition with immobilised ligand): > 5 µM

Cc1ccc(S(=O)(=O)Nc2cc(-c3ccc(C#N)s3)ccc2C)cc1
Kd (Tubulin beta chain/TUBA1B, beta subunit (Sus scrofa, UniProt P02554+Q2XVP4); binding): 22.6 µM

CCc1noc(-c2cccc(NC(=O)c3cccc(OC)c3)c2)n1
Kd (Cystathionine gamma-synthase 1, chloroplastic (CGS1, Arabidopsis thaliana, UniProt P55217); binding, microscale thermophoresis): 5.04 µM

O=C(O)C1(O)Oc2cc(F)ccc2N(Cc2ccccc2)C1=O (stereo not shown)
Kd (Dihydroxy-acid dehydratase, chloroplastic (DHAD, Arabidopsis thaliana, UniProt Q9LIR4); microscale thermophoresis): 1.43 µM and < 3 µM

CCCc1cc2c3c(c1CCC)O[C@H](CO)[C@H](O)[C@@H]3OC2
Kd (LGALS1; ligand displacement, FP): 760 µM

C[n+]1cc(NC(=O)c2ccc3ccc4ccc(C(=O)Nc5cc6ccccc6[n+](C)c5)nc4c3n2)cc2ccccc21
Kd (G-quadruplex DNA myc22; fluorimetric titration; pH 7.2, 100 mM KCl, together with: Cy5-labelled DNA 2 nM): 0.0087 ± 0.004 µM

CC(=O)N[C@@H](Cc1ccccc1)C(=O)N[C@@H](Cc1ccccc1)C(=O)N[C@H](/C=C1\CCC[C@H]1C(=O)N[C@@H](CCCNC(=N)N)C(N)=O)COP(=O)(O)O
Kd (Peptidyl-prolyl cis-trans isomerase NIMA-interacting 1, PPIase domain (PIN1, Homo sapiens, UniProt Q13526); binding, NMR chemical shift titration; PPIase domain without WW): 78 ± 23 µM

CC#Cc1cc2c3c(c1C#CC)O[C@H](CO)[C@H](O)[C@@H]3OC2
Kd (Galectin-9 (LGALS9, Homo sapiens, UniProt O00182); cell-free assay, FP): > 2000 µM

CNc1ccccc1C(=O)O[C@H]1C[C@H](n2cnc3c(N)ncnc32)O[C@@H]1COP(=O)(O)OP(=O)(O)O
Kd (Unconventional myosin-Va (Gallus gallus, UniProt Q02440, D297C/G292C/I296C/S293C/V295G); binding, ligand, stopped-flow FRET; 15 °C, together with: 4 mM EDTA): 3.87 ± 1.01 µM
